Measured values of several laboratories.
Parts stem from different laboratories: compare values within a part only.
Sequence of UniProt Q86Z02 (whole entry, looked up): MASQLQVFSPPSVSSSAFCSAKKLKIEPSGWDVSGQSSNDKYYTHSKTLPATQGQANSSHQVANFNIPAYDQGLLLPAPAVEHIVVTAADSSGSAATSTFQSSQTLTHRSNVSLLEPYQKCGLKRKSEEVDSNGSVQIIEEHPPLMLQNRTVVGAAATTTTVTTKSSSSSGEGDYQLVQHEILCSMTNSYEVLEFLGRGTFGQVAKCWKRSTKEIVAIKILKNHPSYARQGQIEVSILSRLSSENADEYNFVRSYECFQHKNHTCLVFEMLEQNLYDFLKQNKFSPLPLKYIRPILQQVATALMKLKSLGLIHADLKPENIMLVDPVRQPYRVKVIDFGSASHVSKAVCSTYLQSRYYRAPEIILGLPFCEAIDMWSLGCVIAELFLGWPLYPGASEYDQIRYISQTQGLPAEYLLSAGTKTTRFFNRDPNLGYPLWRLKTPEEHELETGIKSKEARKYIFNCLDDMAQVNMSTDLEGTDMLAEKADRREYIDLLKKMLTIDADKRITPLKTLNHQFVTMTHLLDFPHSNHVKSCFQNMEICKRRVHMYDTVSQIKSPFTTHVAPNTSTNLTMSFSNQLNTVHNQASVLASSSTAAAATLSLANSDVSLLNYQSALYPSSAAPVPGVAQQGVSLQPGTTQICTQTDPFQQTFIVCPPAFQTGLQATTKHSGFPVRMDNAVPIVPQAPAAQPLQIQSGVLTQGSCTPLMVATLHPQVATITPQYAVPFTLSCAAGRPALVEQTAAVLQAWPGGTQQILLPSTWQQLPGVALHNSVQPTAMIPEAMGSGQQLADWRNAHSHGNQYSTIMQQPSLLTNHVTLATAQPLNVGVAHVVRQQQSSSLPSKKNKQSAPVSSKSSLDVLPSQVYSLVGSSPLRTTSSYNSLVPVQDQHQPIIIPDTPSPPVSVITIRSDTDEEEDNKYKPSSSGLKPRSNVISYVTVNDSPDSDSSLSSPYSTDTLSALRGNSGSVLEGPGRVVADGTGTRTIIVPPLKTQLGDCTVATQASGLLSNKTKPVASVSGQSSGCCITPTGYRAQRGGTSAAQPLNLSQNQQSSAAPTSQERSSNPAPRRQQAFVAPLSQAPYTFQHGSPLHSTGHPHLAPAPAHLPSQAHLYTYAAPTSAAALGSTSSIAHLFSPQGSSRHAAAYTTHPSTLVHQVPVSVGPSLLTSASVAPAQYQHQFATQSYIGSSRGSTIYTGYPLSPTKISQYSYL
Sequence of UniProt Q9BX84 (whole entry, looked up): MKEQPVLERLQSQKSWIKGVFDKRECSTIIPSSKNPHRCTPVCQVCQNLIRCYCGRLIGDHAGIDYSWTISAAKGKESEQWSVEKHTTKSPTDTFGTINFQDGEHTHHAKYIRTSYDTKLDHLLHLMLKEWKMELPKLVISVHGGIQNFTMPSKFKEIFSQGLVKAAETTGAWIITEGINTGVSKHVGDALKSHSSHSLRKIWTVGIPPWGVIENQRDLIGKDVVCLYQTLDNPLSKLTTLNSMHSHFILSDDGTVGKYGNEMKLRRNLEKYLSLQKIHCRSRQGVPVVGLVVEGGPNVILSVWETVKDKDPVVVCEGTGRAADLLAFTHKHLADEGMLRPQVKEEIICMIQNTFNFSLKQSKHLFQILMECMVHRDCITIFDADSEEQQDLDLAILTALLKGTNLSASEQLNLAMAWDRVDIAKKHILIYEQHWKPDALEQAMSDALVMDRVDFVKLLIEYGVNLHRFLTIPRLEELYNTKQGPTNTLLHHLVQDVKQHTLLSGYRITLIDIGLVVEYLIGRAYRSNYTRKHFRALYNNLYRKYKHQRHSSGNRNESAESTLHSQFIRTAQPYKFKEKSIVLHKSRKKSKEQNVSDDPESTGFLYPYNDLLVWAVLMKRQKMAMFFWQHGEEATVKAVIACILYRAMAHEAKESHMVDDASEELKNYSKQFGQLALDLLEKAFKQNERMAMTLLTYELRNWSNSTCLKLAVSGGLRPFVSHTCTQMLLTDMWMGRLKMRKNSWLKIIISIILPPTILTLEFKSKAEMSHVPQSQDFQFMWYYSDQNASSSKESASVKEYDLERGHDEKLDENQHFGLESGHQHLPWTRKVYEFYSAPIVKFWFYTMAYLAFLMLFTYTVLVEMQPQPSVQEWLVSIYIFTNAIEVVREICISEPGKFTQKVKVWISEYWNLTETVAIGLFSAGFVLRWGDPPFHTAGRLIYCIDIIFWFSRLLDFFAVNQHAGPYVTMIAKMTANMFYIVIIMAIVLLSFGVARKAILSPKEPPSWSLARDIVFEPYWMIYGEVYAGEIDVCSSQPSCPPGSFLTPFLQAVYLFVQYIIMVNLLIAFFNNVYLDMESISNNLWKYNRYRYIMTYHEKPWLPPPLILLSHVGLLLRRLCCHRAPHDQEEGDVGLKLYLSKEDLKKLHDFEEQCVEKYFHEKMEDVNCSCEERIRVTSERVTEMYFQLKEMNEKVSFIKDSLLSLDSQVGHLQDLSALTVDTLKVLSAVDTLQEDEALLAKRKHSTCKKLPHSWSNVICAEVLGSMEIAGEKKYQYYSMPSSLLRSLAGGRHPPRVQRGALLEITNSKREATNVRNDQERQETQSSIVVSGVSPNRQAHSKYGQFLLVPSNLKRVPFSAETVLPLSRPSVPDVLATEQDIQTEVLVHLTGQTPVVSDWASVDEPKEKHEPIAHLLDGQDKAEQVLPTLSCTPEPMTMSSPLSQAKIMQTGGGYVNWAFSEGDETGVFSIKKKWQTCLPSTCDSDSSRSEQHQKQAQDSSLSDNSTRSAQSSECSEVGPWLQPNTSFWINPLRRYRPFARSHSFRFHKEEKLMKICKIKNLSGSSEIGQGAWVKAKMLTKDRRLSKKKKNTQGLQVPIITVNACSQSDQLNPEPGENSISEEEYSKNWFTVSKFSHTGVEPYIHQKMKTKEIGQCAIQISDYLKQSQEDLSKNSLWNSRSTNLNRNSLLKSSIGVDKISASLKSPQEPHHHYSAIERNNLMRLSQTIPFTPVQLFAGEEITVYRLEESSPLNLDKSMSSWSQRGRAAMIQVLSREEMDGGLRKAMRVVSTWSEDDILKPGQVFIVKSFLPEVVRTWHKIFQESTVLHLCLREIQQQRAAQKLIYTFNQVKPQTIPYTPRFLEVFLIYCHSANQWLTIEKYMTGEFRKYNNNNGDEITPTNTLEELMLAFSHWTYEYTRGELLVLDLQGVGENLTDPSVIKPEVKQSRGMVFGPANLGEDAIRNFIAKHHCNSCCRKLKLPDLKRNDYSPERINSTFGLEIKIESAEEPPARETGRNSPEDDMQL
Sequence of UniProt P42336 (whole entry, unmodified, looked up): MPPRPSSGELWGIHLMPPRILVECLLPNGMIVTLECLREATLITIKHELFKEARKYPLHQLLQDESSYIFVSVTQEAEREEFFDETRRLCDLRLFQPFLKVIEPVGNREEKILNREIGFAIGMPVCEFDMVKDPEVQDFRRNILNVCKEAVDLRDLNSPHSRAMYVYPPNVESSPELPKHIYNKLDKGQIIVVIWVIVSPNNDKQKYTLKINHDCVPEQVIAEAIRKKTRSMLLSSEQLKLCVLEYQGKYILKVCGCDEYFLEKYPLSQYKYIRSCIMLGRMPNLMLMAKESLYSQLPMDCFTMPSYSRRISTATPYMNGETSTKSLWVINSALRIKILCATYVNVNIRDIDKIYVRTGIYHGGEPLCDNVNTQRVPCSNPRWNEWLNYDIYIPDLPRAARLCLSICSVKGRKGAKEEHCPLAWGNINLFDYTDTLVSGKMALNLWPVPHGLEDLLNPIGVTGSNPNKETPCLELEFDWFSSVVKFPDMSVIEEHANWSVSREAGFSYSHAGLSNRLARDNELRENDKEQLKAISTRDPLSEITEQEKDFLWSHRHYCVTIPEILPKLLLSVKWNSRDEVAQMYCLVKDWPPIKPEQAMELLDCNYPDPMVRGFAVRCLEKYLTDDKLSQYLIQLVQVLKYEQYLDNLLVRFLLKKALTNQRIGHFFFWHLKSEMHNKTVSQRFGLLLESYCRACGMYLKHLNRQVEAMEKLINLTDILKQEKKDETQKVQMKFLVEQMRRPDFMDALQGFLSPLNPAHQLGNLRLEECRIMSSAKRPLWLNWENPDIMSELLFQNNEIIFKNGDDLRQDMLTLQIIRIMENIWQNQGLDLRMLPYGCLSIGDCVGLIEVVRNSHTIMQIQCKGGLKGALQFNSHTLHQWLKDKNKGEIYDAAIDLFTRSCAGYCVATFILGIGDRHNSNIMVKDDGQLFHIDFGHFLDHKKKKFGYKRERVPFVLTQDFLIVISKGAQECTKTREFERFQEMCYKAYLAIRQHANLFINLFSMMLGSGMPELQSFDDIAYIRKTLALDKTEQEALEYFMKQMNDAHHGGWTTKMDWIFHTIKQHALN
Sequence of UniProt P50613 (whole entry, looked up): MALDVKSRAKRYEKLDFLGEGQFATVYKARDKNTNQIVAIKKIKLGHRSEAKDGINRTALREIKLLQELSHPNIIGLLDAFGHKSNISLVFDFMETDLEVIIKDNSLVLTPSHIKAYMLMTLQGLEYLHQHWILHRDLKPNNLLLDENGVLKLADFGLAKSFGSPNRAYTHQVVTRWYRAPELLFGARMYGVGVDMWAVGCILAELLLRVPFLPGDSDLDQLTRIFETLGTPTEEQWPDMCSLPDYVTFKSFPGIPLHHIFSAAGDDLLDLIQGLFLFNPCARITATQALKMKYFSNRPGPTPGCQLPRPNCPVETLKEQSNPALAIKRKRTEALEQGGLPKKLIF

Block 1
Cell line: A-375
Tested at: 100 µM
Time: 36 h
Quantity: viability
CCCOc1ccc(C(=O)OCCN(CC)CC)cc1N: 84%
Cc1ncc([N+](=O)[O-])n1CC(C)O (stereo not shown): 113%
CC1=C(C/C=C(\C)CCC[C@H](C)CCC[C@H](C)CCCC(C)C)C(=O)c2ccccc2C1=O: 106%
CCCCCOC(=O)Nc1nc(=O)n([C@@H]2O[C@H](C)[C@@H](O)[C@H]2O)cc1F: 115%
Cc1ccc(C(=O)C(C)CN2CCCCC2)cc1 (stereo not shown): 116%
O=C(Nc1cccc2c(=O)cc(-c3nnn[nH]3)oc12)c1ccc(OCCCCc2ccccc2)cc1: 26.8%
COc1ccccc1OCC(O)CN1CCN(CC(=O)Nc2c(C)cccc2C)CC1 (stereo not shown): 104%
CCC[C@@H]1C[C@@H](C(=O)N[C@@H]([C@H]2O[C@H](SC)[C@H](OP(=O)(O)O)[C@@H](O)[C@H]2O)[C@H](C)Cl)N(C)C1: 82.5%
N=C(N)N: 114%
C[C@]12C=CC(=O)C=C1CC[C@@H]1[C@@H]2[C@@H](O)C[C@@]2(C)[C@H]1CC[C@]2(O)C(=O)CO: 109%
CC(=O)N1CCN(c2ccc(OC[C@@H]3CO[C@@](Cn4ccnc4)(c4ccc(Cl)cc4Cl)O3)cc2)CC1 (racemic): -0.0191%
CC1=C(/C=C/C(C)=C/C=C/C(C)=C/C=C/C=C(C)/C=C/C=C(C)/C=C/C2=C(C)CCCC2(C)C)C(C)(C)CCC1: 41.6%
C[C@H](CCC(=O)O)[C@H]1CC[C@H]2[C@@H]3[C@@H](O)C[C@@H]4C[C@H](O)CC[C@]4(C)[C@H]3CC[C@]12C: 111%
CCCCC(=O)N(Cc1ccc(-c2ccccc2-c2nnn[nH]2)cc1)[C@H](C(=O)O)C(C)C: 95%

Block 2
Target: Calcium/calmodulin-dependent protein kinase type II subunit alpha (CAMK2A, Homo sapiens, UniProt Q9UQM7)
Sequence of UniProt Q9UQM7 (whole entry, looked up): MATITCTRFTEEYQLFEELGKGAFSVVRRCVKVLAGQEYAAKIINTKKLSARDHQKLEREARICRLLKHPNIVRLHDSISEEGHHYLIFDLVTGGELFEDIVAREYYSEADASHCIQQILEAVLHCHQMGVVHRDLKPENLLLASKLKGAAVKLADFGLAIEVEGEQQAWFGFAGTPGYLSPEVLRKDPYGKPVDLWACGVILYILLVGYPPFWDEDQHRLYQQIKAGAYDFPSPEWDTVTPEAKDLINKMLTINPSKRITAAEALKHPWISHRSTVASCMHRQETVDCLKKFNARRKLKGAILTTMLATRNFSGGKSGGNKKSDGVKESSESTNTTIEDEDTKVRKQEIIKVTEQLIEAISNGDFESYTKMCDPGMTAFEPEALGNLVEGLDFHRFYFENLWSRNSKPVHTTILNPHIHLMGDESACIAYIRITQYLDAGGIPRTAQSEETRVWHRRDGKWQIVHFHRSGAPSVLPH
Effect on: enzyme activity
Mode: inhibitor
Tested at: 0.5 µM
Baseline: control
Quantity: remaining activity
COc1cc2ncnc(N3CCN(C(=O)Nc4ccc(Oc5ccccc5)cc4)CC3)c2cc1OC: 89.9%
COc1ccc(Cl)cc1NC(=O)Nc1cc(C)nc2ccccc12: 101%
O=C(Nc1ccc(Cl)cc1)c1ccccc1NCc1ccncc1: 99.9%
CN(C)CCCn1cc(C2=C(c3c[nH]c4ccccc34)C(=O)NC2=O)c2ccccc21: 35.2%
CCOc1cc2ncnc(Nc3cccc(Br)c3)c2cc1OCC: 103%
Cn1cc(/C=C2\C(=O)Nc3ccc(S(N)(=O)=O)cc32)c2ccccc21: 57.6%
COc1cc2ncc(-c3ccccc3)nc2cc1OC: 99.5%
COc1ccc(-c2cnc3c(-c4ccsc4)cnn3c2)cc1: 96.6%
CCC(=O)Nc1ccc2ncnc(Nc3cccc(Br)c3)c2c1: 85.7%
CC(=O)O/N=C1/C(c2c(O)[nH]c3cc(Br)ccc23)=Nc2ccccc21: 89.2%
Nc1[nH]nc2nnc(-c3c(-c4ccccc4)nn4ccccc34)cc12: 102%
Cc1nc(Nc2ncc(C(=O)Nc3c(C)cccc3Cl)s2)cc(N2CCN(CCO)CC2)n1: 103%
Cn1cnc2cc3c(Nc4cccc(Br)c4)ncnc3cc21: 102%
COc1cc2ncnc(Nc3ccc(OCc4ccccc4)cc3)c2cc1OC: 107%
O=C1NC(=O)/C(=C/c2ccc3nccnc3c2)S1: 92.3%
CC(C)[C@H](CO)Nc1nc(Nc2cccc(Cl)c2)c2ncn(C(C)C)c2n1: 101%
CCN1/C(=C/C(C)=O)Sc2ccc(OC)cc21: 103%
CC(C)c1nn(-c2c(Cl)cccc2Cl)c2nc(Cc3ccc(OCCO)cc3)[nH]c(=O)c12: 106%
O=c1cc(N2CCOCC2)oc2c1ccc1ccccc12: 99.4%

Block 3
Structure (SMILES): Cc1ccc(NC(=O)c2ccnc(C(F)(F)F)c2)cc1-c1cc(OCCO)nc(N2CCOCC2)c1
Technique: competitive binding panel
Tested at: 1 µM
Baseline: vehicle
Quantity: remaining binding
Serine/threonine-protein kinase RIO2 (RIOK2, Homo sapiens, UniProt Q9BVS4): 100%
Cyclin-dependent kinase 7 (CDK7, Homo sapiens, UniProt P50613): 98%
Mitogen-activated protein kinase kinase kinase kinase 1 (MAP4K1, Homo sapiens, UniProt Q92918); measured: HPK1: 83%
Homeodomain-interacting protein kinase 1 (HIPK1, Homo sapiens, UniProt Q86Z02): 93%
Citron Rho-interacting kinase (CIT, Homo sapiens, UniProt O14578): 96%
Phosphatidylinositol 4-kinase beta (PI4KB, Homo sapiens, UniProt Q9UBF8); measured: PIK4CB: 100%
Mitogen-activated protein kinase kinase kinase 4 (MAP3K4, Homo sapiens, UniProt Q9Y6R4): 90%
Calcium/calmodulin-dependent protein kinase type 1 (CAMK1, Homo sapiens, UniProt Q14012): 100%
Phosphatidylinositol 4,5-bisphosphate 3-kinase catalytic subunit alpha isoform (PIK3CA, Homo sapiens, UniProt P42336, M1043I): 94%
Serine/threonine-protein kinase PAK 6 (PAK6, Homo sapiens, UniProt Q9NQU5): 94%
Transient receptor potential cation channel subfamily M member 6 (TRPM6, Homo sapiens, UniProt Q9BX84): 82%
Serine/threonine-protein kinase PRP4 homolog (PRPF4B, Homo sapiens, UniProt Q13523); measured: PRP4: 100%

Single results of other studies
CNC(=O)Nc1ccc2c(c1)CC[C@]21OC(=O)N(CC(=O)N(Cc2ccc(F)cc2)[C@@H](C)C(F)(F)F)C1=O — inhibition (D(2) dopamine receptor (DRD2, Homo sapiens, UniProt P14416); ligand displacement; 10 µM): 15.5%

Repeated from above (block 1):
COc1ccccc1OCC(O)CN1CCN(CC(=O)Nc2c(C)cccc2C)CC1 (stereo not shown): 104%
CCCCCOC(=O)Nc1nc(=O)n([C@@H]2O[C@H](C)[C@@H](O)[C@H]2O)cc1F: 115%
CC1=C(C/C=C(\C)CCC[C@H](C)CCC[C@H](C)CCCC(C)C)C(=O)c2ccccc2C1=O: 106%
